Experimental data gathered from unrelated publications.
Every numbered part comes from another study and shows a few of its results, in no order. Changes are numbered by the printed parent chain.
UniProt Q15349, sequence (whole entry, looked up): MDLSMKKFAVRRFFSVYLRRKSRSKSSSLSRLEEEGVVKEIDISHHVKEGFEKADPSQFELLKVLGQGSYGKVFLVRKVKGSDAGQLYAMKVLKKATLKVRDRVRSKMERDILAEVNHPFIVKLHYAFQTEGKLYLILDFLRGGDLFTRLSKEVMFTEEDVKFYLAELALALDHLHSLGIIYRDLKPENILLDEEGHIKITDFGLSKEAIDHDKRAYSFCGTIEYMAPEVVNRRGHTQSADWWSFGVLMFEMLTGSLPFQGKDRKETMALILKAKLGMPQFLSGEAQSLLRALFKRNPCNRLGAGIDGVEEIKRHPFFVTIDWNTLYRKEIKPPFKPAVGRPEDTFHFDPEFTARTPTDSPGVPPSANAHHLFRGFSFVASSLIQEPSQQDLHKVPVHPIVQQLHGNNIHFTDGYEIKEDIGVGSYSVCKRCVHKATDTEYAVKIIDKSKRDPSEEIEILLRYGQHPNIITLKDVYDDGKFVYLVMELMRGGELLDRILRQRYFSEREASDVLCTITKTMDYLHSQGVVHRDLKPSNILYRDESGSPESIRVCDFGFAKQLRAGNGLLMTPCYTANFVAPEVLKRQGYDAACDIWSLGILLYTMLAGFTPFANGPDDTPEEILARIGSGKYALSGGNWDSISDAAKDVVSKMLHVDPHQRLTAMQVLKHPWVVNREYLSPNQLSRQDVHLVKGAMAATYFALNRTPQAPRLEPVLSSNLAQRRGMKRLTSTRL
UniProt P10721, sequence (whole entry, unmodified, looked up): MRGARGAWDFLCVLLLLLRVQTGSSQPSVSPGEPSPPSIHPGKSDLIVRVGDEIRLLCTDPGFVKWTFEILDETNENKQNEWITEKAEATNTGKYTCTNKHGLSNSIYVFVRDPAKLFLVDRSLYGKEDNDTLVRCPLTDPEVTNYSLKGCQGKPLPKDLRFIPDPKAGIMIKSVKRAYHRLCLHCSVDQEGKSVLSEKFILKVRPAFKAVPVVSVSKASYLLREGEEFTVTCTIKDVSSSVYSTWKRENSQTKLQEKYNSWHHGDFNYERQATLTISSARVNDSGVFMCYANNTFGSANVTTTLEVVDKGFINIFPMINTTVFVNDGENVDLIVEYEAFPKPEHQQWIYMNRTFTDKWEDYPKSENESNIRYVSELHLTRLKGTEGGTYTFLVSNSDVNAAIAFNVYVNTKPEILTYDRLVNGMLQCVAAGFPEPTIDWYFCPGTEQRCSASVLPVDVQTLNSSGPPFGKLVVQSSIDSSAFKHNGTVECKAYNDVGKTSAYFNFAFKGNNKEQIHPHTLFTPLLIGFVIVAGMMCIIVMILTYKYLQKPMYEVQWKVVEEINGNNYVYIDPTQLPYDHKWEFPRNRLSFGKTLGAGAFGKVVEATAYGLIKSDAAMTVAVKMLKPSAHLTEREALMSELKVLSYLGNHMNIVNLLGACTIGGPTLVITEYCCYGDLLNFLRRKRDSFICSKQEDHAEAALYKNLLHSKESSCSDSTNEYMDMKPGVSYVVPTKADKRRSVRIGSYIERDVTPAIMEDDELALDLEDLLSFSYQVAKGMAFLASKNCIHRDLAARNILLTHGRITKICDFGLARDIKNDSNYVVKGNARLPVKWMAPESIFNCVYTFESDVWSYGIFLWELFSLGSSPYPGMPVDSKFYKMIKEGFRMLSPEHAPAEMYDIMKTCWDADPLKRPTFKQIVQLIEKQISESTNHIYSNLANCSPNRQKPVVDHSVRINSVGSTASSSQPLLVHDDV
UniProt P29320, sequence (whole entry, looked up): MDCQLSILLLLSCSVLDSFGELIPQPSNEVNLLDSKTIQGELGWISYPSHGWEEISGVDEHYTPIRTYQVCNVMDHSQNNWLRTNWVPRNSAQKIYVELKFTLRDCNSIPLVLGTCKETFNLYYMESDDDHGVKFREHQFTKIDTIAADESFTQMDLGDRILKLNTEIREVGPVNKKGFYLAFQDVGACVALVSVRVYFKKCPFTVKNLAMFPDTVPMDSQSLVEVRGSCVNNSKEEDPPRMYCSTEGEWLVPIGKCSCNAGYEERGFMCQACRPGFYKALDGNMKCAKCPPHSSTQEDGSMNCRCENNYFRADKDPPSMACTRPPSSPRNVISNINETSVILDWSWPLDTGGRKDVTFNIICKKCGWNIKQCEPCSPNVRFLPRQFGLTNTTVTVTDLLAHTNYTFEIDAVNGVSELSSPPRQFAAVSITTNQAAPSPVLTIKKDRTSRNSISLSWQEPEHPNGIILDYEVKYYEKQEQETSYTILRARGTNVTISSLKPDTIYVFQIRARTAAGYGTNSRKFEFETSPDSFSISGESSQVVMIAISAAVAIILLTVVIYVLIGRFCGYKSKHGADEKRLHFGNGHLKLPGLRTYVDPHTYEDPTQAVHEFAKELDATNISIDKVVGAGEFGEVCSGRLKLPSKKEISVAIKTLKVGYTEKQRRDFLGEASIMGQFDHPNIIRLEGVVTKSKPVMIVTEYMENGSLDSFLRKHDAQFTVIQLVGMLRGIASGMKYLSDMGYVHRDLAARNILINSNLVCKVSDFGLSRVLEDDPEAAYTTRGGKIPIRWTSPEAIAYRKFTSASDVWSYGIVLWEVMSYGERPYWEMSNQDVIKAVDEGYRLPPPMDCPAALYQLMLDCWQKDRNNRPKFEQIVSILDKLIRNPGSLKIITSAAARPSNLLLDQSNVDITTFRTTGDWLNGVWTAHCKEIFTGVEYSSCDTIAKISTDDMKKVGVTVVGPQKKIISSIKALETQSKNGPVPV
UniProt Q12866, sequence (whole entry, looked up): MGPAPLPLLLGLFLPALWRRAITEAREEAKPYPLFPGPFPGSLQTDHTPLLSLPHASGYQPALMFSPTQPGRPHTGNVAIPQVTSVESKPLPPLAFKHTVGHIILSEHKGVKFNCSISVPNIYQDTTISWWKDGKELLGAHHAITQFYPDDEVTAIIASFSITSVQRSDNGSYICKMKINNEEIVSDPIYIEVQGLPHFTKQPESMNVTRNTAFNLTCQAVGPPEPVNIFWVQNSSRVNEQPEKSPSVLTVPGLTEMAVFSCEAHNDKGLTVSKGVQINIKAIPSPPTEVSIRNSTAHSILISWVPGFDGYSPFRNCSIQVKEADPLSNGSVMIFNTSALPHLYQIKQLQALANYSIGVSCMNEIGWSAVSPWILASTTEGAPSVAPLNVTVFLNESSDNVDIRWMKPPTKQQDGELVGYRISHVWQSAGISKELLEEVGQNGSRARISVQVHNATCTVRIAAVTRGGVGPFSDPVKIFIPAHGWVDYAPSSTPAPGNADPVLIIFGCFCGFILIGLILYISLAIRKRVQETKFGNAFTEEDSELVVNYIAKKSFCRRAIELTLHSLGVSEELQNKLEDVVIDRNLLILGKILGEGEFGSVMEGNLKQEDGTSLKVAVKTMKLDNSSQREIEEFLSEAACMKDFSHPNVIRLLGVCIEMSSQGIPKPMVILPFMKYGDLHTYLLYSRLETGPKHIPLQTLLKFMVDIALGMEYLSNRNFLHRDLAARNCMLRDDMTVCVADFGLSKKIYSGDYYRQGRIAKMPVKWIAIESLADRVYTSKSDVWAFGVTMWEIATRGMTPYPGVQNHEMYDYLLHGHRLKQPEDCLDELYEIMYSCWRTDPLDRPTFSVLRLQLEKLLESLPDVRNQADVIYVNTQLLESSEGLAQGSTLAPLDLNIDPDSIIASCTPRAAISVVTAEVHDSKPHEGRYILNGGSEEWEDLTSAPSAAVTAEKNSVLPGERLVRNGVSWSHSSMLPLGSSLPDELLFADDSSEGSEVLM
UniProt Q9Y4K4, sequence (whole entry, looked up): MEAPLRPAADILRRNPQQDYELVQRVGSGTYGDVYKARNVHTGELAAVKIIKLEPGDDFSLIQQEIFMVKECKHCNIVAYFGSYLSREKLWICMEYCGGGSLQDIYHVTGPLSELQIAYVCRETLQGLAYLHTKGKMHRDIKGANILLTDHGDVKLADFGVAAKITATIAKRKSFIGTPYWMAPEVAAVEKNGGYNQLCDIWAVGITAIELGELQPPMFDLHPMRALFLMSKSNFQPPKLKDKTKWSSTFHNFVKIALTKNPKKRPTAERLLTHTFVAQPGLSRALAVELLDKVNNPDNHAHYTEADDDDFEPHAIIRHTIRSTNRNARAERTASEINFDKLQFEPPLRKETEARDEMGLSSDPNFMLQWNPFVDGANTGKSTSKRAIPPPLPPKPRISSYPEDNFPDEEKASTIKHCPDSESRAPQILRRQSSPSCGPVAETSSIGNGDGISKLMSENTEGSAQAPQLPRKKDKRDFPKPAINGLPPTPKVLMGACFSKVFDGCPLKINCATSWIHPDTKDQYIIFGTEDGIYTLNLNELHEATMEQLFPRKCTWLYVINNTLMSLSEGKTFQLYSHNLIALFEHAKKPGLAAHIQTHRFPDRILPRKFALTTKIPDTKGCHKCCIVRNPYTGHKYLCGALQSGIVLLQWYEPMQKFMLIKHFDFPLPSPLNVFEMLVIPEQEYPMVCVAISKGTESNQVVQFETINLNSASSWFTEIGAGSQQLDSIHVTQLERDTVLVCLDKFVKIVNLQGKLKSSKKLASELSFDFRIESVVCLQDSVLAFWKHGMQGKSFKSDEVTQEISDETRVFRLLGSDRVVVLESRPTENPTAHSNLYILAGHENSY

Series 1
Target: CCNE1, cyclin fold, Cln2 fusion (human)
Technique: yeast growth competition, sequencing
Sample: yeast
Notes: weak parent motif
Reference: not given
Direction: higher = stronger binding
Endpoint: normalised enrichment score
Starting sequence: SAMHD1 docking peptide (human); ASKSRVQLFKDDP
ASKSRVTLFKDDP [Q7T]: -0.102
AEKSRVQLFKDDP [S2E]: 0.319
ASKSRVQLFKDPP [D12P]: 0.148
ASKSHVQLFKDDP [R5H]: -0.152
ASKSRVQLFKDWP [D12W]: 0.429
ASFSRVQLFKDDP [K3F]: 0.379
ASKSRVQLFKIDP [D11I]: -0.093
ASKSRVQLFFDDP [K10F]: -0.25

Series 2
SMILES: Cc1ccc(S(=O)(=O)/C=C/C#N)cc1
Effect on: enzyme activity
Action: inhibitor
Tested at: 0.5 µM
Reference: control
Endpoint: remaining activity
Rhodopsin kinase GRK7 (GRK7, Homo sapiens, UniProt Q8WTQ7): 92.6%
Serine/threonine-protein kinase TAO2 (TAOK2, Homo sapiens, UniProt Q9UL54): 89.7%
Dual specificity mitogen-activated protein kinase kinase 2 (MAP2K2, Homo sapiens, UniProt P36507): 91%
Tyrosine-protein kinase JAK3 (JAK3, Homo sapiens, UniProt P52333): 101%
Casein kinase I isoform gamma-2 (CSNK1G2, Homo sapiens, UniProt P78368): 98.6%
Serine/threonine-protein kinase Nek6 (NEK6, Homo sapiens, UniProt Q9HC98): 108%
Serine/threonine-protein kinase Nek1 (NEK1, Homo sapiens, UniProt Q96PY6): 92.3%
Ephrin type-A receptor 3 (EPHA3, Homo sapiens, UniProt P29320): 95%
Glycogen synthase kinase-3 beta (GSK3B, Homo sapiens, UniProt P49841): 109%
Ribosomal protein S6 kinase alpha-2 (RPS6KA2, Homo sapiens, UniProt Q15349): 100%
Mitogen-activated protein kinase kinase kinase 5 (MAP3K5, Homo sapiens, UniProt Q99683): 100%
Serine/threonine-protein kinase ULK2 (ULK2, Homo sapiens, UniProt Q8IYT8): 110%
Tyrosine-protein kinase Mer (MERTK, Homo sapiens, UniProt Q12866): 96.4%

Series 3
Target: Eukaryotic initiation factor 4A-I (EIF4A1, Homo sapiens, UniProt P60842, residues 1-406, full length assumed)
UniProt P60842, sequence (whole entry, looked up): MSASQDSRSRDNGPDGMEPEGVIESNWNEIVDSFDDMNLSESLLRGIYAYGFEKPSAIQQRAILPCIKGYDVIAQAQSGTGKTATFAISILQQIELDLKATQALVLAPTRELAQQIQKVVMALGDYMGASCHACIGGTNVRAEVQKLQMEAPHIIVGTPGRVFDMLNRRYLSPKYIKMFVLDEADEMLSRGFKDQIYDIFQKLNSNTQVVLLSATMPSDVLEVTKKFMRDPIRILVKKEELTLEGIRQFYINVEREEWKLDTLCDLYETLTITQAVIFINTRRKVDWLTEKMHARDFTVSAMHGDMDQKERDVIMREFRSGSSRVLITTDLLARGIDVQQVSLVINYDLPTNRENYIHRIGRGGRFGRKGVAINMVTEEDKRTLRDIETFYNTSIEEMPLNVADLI
Technique: RNA Bind-n-Seq
Form: RNA
Sample: in vitro
Tested at: 15 pmol
Notes: 4-mer, random 30-nt RNA, single round
Together with: 3 µM DMDA-PatA, 2 mM AMP-PNP
Reference: input library
Direction: higher = stronger binding
Endpoint: 4-mer enrichment
AGUU: 1.31 fold
CAGC: 0.465 fold
UUAC: 0.834 fold
ACCU: 0.652 fold
GAUU: 1.2 fold
UGAU: 1.28 fold
AACC: 0.391 fold
AUUG: 1.31 fold

Series 4
SMILES: O=C(NS(=O)(=O)c1ccc(NCC2CCOCC2)c([N+](=O)[O-])c1)c1ccc(N2CCN(Cc3ccc(C(F)(F)F)cc3-c3ccc(Cl)cc3)CC2)cc1Oc1cnc2[nH]ccc2c1
Effect on: cell-free assay
Technique: competition with immobilised ligand
Tested at: 1 µM
Endpoint: remaining binding
Mast/stem cell growth factor receptor Kit (KIT, Homo sapiens, UniProt P10721, V559D/V654A): 100%
Tyrosine-protein kinase ABL1, phosphorylated (ABL1, Homo sapiens, UniProt P00519, Q252H): 84%
Ribosomal protein S6 kinase alpha-2, C-terminal kinase domain (RPS6KA2, Homo sapiens, UniProt Q15349): 100%
Serine/threonine-protein kinase 38 (STK38, Homo sapiens, UniProt Q15208): 90%
Mast/stem cell growth factor receptor Kit (KIT, Homo sapiens, UniProt P10721, L576P): 100%
Serine/threonine-protein kinase Sgk3 (SGK3, Homo sapiens, UniProt Q96BR1): 92%
Mitogen-activated protein kinase kinase kinase kinase 5 (MAP4K5, Homo sapiens, UniProt Q9Y4K4): 98%

A few entries again (series 3):
AGUU: 1.31 fold
CAGC: 0.465 fold
UUAC: 0.834 fold
ACCU: 0.652 fold
GAUU: 1.2 fold
UGAU: 1.28 fold
